Experimental data gathered from unrelated publications.
Each numbered part is a random draw from the data of one study; scales do not carry over between parts. Substitutions count along the parent as printed.
UniProt Q9ZPY6, sequence (whole entry, looked up): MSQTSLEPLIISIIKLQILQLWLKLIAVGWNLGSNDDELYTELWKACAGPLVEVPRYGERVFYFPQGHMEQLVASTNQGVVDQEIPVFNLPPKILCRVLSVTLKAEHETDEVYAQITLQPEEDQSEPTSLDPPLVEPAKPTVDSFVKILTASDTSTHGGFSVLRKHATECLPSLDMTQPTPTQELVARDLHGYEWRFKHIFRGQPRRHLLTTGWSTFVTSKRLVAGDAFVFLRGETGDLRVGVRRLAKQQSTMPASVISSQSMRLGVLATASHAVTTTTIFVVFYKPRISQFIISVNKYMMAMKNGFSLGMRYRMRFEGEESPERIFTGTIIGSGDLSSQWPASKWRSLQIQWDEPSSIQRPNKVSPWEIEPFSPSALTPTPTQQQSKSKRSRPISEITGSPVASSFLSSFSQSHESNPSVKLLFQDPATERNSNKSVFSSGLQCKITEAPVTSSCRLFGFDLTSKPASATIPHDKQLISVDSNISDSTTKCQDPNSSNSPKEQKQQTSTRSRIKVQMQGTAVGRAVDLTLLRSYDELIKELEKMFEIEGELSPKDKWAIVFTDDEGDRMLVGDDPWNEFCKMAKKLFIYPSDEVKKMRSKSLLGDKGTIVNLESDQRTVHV
UniProt O23661, sequence (whole entry, looked up): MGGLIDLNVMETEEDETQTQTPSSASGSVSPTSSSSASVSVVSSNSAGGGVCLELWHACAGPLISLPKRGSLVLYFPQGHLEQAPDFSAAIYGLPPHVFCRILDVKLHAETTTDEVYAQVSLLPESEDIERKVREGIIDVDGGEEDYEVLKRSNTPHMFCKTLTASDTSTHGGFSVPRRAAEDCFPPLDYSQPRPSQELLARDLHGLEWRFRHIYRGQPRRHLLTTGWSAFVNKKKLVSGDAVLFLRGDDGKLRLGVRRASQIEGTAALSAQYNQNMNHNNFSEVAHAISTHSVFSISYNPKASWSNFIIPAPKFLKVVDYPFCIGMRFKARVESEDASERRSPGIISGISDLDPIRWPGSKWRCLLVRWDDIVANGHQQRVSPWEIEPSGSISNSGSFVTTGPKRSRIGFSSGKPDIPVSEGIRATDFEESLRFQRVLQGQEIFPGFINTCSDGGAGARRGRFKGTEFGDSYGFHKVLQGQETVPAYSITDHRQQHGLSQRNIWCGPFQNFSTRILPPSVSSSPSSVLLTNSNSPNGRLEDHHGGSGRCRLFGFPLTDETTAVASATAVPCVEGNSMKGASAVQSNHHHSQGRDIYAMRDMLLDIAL
UniProt Q38832, sequence (whole entry, looked up): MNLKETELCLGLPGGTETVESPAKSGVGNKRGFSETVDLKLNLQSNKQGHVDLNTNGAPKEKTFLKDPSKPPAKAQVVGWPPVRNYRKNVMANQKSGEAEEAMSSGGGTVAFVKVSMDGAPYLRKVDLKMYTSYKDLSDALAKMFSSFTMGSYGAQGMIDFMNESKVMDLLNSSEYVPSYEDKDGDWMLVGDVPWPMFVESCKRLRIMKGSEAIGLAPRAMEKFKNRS
UniProt O24409, sequence (whole entry, looked up): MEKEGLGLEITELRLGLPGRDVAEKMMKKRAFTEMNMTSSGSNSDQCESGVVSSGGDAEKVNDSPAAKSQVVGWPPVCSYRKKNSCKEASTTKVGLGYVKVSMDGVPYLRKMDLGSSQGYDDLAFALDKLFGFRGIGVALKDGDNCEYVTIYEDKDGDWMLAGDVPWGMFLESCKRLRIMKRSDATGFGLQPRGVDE

Set 1 — target: CCNB2, cyclin fold, Cln2 fusion (human); technique: yeast growth competition, sequencing; sample: yeast; notes: weak parent motif; relative to: not given; direction: higher = stronger binding
Starting sequence: PPP1R3F docking peptide (human); VAPRRVLFADEAL
| Substitution | normalised enrichment score |
| --- | --- |
| VAPRKVLLADEAL [R5K F8L] | 0.395 |
| VAPRAVAFADEAL [R5A L7A] | -0.123 |
| VAPRRVLFAAEAL [D10A] | 0.14 |
| AAPRRVLFADEAL [V1A] | 0.163 |
| VAPRAVLFADEAL [R5A] | 0.236 |
| VAPRRVLLADEAL [F8L] | 0.633 |
| VAARRVLFADEAL [P3A] | 0.316 |
| VAPARVLFADEAL [R4A] | 0.276 |

Set 2 — technique: protein-binding microarray; form: double-stranded DNA, one strand shown; sample: in vitro; concentration: not given; direction: higher = stronger binding
Target: Max-binding protein MNT, bHLH-zipper, MAX partner unstated (MNT, Homo sapiens, UniProt Q99583, residues 220-300)
Notes: k-mer, scored over probes, only values ≥0.25
Construct (chain): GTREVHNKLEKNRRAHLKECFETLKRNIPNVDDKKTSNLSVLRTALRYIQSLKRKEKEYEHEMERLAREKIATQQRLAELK
| Oligonucleotide | E-score |
| --- | --- |
| CGCGTGTC | 0.455 |
| CCGAGGAA | 0.255 |
| CATGTTGG | 0.29 |
| CAGGTGGC | 0.327 |
| AGGCGCAT | 0.254 |
| GCGTGTAA | 0.364 |
| ACGCACGA | 0.384 |
| ATCATGCG | 0.335 |
| CTGCATGC | 0.35 |
| AGGGCATG | 0.323 |
| CTTCACGC | 0.257 |
| CAACGAGG | 0.277 |
| CCACACCA | 0.284 |

Set 3 — technique: RNA Bind-n-Seq; form: RNA; sample: in vitro; concentration: not given; relative to: input RNA pool; direction: higher = stronger binding
Target: RING finger protein unkempt homolog, zinc fingers 1-6, GST-SBP tag (UNK, Homo sapiens, UniProt Q9C0B0, residues 30-357)
Notes: RNA with constant flanks, human and mouse sites, ends assumed
Constant ends, left off below: GGGAGUUCUACAGUCCGACGAUC … CAACAGAGGAUUGAGCAUCA
Target sequence (chain): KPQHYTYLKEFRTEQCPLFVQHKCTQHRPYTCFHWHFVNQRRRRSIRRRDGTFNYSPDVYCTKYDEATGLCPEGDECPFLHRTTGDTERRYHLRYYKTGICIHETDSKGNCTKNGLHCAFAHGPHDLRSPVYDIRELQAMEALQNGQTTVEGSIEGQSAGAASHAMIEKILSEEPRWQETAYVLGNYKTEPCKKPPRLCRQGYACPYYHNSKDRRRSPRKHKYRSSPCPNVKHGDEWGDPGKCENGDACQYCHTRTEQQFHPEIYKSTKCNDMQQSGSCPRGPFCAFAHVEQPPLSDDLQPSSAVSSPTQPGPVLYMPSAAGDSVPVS
| Oligonucleotide | bound/input enrichment [ratio] |
| --- | --- |
| GCCCGCCUUUUCCUUUCUCACUUUGGAUUUUUAUCCUUAGAGGCAUUAAAGGAACCUGCAAAUAGUCGUCUACCUCCUCAUCUUAUUGCACUCGAUUCUACCAUACCUGGAUUUUUUGAU | 0.398 |
| AAUGGGAAGAAUGAGAGAAGUCAUAUGCCCGGCACAUAUUUGACUACAGUCAUUCCUUAUGAGAAAAAAAACGGACCACCGUCUGUUGAAGAUCUUCAAAUAUUAACAAAAAUUCUUCGU | 0.221 |
| CAGAAGGACCUCACGGAGUCUAAGGGAAAAAUAGUCCAGCUGGAGGGAAAGCUUGUUUCAAUAGAGAAAGAAAAGAUCGAUGAAAAAUGUGAAACAGAAAAACUCUUAGAAUACAUCCAA | 0.387 |
| CUUCAUGUUUCUGAAAAUGUGAUAUUCACAGAUGUGAAUUCUAUACUUCGCUACUUGGCUAGAGUUGCAACUACAGCUGGGUUAUAUGGCUCUAAUCUGAUGGAACAUACUGAGAUUGAU | 0.0964 |
| AUCAGCAUUGAGUGUGUGGAGUGCUGUGGCAGGAAUCUUUAUGUCGGCACCAAUGACUGCUUCAUUUACCAUUUCCUGCUGGAGGAGAAGGCCAUGCCUACAGGGACAGCUACAUUCGUU | 0.293 |
| ACUGGGGCAGAAGACAAAGAUAAAAAGAAGAAAGAAAAAGAAAAUAAAUCUGAAAAGCAGAACAAGCCUCAGAAACAAAAUGAUGGCCAAGGGAAAGACUCUUCCAAAAGCCAAGGCAGU | 0.695 |
| CCAAGGAGGGAGUCCUACAAGUGUGGGGAAUGUGGGAAGGCCUUCAGCCAGAGAGGAAACUUCCUUUCUCAUCAGAAACAACAUACCGAAGAGAGACCCAGUGAAUCUAAGAAAACUCCC | 0.257 |
| UUUAAGACUUUAUAUUGUGUUUCAAACAAAGAAAGCCCUAACCAAAACAAUACUACCCACUUAGAUAUUGCUGCAGUUCAAGGUUUUUCAGUCAUCUUGGACUUCCUGUAUUCUGGGAAC | 0.468 |

Set 4 — technique: DHFR PCA, deep sequencing; sample: yeast; together with: (+)-ABA 58 µM; relative to: wild-type fitted maximum; direction: higher = stronger binding
Target: ABI1, truncated, D143A, DHFR fusion (Arabidopsis thaliana)
Notes: methotrexate growth selection, single substitutions
Starting sequence: PYL1, truncated, DHFR fusion (Arabidopsis thaliana); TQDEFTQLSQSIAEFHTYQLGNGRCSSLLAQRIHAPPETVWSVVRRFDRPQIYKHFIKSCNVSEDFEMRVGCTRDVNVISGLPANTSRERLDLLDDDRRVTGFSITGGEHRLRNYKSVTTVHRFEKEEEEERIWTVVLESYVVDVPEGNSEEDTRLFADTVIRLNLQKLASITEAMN
| Substitution | relative binding score [%] |
| --- | --- |
| S150R | 51.9 |
| S171W | 72.5 |
| E64F | 76 |
| Q10T | 89.9 |
| Y141A | -7.45 |
| Q31T | 48.9 |
| G81N | 21.6 |
| G71S | 37.9 |
| K116G | 21.3 |
| H110L | 0.481 |
| E147T | 78.8 |
| F5V | 91.9 |
| R69W | 39.4 |
| C25K | 3.5 |
| D96K | 16 |
| F47R | -6.25 |
| S26E | 33.1 |
| R132Y | 85.1 |
| T173L | 58.3 |
| D3G | 74 |
| I79T | 84.6 |
| S80M | 13.2 |

Set 5 — Molecule: B1 (IAA13); technique: two-hybrid; direction: higher = firmer interaction
B1: IAA13 (Arabidopsis thaliana, UniProt Q38831); chain MITELEMGKGESELELGLGLSLGGGTAAKIGKSGGGGAWGERGRLLTAKDFPSVGSKRAADSASHAGSSPPRSSSQVVGWPPIGSHRMNSLVNNQATKSAREEEEAGKKKVKDDEPKDVTKKVNGKVQVGFIKVNMDGVAIGRKVDLNAHSSYENLAQTLEDMFFRTNPGTVGLTSQFTKPLRLLDGSSEFVLTYEDKEGDWMLVGDVPWRMFINSVKRLRVMKTSEANGLAARNQEPNERQRKQPV
| partner | relative to | positive tests |
| --- | --- | --- |
| IAA14 (Arabidopsis thaliana, UniProt Q38832) | out of 4 tests | 4 |
| ETT (Arabidopsis thaliana, UniProt O23661) | out of 2 tests | 0 |
| IAA19 (Arabidopsis thaliana, UniProt O24409) | out of 4 tests | 2 |
| ARF11 500-622 (Arabidopsis thaliana, UniProt Q9ZPY6) | out of 2 tests | 0 |
